Measured values of several laboratories.
Parts stem from different laboratories: compare values within a part only.
Sequence of UniProt O94806 (whole entry, looked up): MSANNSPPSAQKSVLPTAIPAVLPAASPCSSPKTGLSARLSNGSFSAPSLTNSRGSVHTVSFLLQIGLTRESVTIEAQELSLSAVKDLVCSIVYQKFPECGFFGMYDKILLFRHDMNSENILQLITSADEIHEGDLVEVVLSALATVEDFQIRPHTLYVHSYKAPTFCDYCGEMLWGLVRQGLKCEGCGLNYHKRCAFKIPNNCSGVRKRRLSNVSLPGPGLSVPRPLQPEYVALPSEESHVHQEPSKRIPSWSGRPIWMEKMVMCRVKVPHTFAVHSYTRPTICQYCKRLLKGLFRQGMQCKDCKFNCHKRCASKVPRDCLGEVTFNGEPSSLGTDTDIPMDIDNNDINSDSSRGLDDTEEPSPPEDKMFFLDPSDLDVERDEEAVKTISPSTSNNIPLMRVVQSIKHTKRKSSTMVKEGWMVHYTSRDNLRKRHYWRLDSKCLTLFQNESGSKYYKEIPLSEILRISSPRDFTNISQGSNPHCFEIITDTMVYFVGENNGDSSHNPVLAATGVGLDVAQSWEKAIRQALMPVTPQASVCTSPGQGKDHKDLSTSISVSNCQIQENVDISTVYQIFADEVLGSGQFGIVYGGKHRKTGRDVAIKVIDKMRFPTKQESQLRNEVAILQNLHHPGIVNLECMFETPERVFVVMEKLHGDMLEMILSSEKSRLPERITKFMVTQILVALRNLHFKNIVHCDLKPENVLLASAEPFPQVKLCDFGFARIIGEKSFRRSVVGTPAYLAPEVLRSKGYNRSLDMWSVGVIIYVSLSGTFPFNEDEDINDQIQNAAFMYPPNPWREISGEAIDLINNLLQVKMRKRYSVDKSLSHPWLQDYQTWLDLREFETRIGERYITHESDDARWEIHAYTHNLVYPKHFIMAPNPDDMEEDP
Sequence of UniProt O94804 (whole entry, looked up): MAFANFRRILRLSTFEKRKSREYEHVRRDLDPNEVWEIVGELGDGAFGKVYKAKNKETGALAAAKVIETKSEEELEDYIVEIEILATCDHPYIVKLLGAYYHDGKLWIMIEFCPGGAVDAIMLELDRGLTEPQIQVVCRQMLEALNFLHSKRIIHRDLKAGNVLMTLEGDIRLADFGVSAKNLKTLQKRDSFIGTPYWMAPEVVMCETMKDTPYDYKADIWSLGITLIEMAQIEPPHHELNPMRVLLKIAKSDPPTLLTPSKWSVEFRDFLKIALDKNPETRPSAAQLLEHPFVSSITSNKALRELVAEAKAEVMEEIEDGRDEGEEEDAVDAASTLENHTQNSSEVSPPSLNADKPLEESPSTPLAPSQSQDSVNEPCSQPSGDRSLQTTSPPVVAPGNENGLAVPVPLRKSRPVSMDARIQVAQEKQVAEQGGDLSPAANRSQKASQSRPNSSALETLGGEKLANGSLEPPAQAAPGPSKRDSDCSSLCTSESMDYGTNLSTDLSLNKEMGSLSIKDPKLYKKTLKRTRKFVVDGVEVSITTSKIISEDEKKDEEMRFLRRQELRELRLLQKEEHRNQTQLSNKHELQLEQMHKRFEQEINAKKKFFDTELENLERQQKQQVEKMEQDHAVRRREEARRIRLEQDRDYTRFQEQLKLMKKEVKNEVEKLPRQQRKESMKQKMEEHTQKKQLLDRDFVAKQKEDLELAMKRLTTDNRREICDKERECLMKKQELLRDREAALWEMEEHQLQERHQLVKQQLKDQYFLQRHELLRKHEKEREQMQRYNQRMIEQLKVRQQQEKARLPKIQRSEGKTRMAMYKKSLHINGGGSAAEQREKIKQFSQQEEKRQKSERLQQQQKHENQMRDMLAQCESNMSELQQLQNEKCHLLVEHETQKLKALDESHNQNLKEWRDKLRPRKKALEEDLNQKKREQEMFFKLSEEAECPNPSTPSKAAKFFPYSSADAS
Sequence of UniProt Q9H0K1 (whole entry, looked up): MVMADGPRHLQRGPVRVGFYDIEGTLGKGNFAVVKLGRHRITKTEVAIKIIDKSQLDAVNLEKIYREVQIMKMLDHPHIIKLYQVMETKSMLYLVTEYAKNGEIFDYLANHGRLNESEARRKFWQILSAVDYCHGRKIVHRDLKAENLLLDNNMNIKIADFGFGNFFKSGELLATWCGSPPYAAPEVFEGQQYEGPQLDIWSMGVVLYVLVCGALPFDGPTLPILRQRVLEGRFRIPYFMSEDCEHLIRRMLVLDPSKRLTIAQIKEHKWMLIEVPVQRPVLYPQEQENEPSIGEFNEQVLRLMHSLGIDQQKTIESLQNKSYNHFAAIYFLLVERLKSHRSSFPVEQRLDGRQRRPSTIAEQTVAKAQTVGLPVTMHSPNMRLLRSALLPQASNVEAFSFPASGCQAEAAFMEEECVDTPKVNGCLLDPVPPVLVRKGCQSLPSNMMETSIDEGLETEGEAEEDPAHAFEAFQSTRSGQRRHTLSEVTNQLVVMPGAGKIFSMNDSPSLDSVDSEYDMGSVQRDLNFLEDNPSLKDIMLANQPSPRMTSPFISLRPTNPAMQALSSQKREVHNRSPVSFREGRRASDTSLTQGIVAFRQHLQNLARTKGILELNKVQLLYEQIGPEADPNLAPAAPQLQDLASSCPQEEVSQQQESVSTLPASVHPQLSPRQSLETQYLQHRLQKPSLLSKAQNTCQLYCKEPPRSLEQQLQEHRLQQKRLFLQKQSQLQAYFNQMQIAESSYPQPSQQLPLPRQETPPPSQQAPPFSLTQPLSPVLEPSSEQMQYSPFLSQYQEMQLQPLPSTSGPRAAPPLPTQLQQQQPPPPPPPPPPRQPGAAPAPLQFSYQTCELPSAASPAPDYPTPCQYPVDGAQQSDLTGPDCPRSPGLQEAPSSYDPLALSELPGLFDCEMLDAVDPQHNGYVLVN
Sequence of UniProt P42336 (whole entry, unmodified, looked up): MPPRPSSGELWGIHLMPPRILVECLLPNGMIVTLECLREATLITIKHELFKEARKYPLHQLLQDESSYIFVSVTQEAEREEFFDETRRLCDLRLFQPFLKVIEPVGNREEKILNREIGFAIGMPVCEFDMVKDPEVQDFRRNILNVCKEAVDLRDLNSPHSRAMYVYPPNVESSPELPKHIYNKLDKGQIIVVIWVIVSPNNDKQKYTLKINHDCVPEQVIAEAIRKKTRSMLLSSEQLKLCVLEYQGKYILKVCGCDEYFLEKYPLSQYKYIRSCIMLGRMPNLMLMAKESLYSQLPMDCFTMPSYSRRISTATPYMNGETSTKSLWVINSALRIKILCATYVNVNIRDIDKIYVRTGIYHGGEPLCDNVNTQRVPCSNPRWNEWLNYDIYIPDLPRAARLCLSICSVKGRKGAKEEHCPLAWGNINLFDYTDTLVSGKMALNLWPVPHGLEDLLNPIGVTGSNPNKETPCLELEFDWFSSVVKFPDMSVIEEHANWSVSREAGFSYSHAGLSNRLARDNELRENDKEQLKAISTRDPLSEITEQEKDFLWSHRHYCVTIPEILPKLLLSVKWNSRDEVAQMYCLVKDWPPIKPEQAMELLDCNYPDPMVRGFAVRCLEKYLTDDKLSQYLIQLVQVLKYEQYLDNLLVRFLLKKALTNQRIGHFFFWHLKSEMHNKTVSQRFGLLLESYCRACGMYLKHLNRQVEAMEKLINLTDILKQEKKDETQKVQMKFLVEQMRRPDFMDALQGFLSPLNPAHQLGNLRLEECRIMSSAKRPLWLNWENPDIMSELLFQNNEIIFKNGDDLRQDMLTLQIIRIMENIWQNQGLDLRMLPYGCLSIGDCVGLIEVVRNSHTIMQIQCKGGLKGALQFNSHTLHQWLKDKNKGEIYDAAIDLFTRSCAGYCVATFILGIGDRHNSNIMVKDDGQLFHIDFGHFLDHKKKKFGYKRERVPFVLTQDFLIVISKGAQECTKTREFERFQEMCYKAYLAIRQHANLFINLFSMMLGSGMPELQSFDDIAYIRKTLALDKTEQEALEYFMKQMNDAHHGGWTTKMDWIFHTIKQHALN
Sequence of UniProt Q9HBH9 (whole entry, looked up): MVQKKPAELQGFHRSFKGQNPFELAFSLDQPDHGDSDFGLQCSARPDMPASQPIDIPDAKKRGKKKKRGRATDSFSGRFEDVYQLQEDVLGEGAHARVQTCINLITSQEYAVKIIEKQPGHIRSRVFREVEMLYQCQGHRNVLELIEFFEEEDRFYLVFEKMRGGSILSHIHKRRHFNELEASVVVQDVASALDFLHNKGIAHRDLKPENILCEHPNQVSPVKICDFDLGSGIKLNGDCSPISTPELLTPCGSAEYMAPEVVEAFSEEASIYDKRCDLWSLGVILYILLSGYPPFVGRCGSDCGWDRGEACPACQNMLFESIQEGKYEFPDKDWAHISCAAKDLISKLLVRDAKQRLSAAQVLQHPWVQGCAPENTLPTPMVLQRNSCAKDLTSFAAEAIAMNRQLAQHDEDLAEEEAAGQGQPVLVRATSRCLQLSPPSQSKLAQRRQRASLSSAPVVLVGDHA

Study 1 — effect on: cell-free assay; method: competition with immobilised ligand; concentration: 1 µM
Structure (SMILES): C[C@H](c1ccc(F)cc1)N(Cc1cccc(C(=O)O)c1)C(=O)c1cnc2ccccc2c1
| target | remaining binding |
| --- | --- |
| MAP kinase-interacting serine/threonine-protein kinase 2 (MKNK2, Homo sapiens, UniProt Q9HBH9) | 74% |
| Phosphatidylinositol 4,5-bisphosphate 3-kinase catalytic subunit alpha isoform (PIK3CA, Homo sapiens, UniProt P42336, E542K) | 49% |
| Serine/threonine-protein kinase 10 (STK10, Homo sapiens, UniProt O94804) | 89% |
| Serine/threonine-protein kinase D3 (PRKD3, Homo sapiens, UniProt O94806) | 100% |
| Serine/threonine-protein kinase SIK2 (SIK2, Homo sapiens, UniProt Q9H0K1) | 96% |

Study 2 — effect on: enzyme activity; action: inhibitor; concentration: 0.5 µM; relative to: control
Target: Serine/threonine-protein kinase D3 (PRKD3, Homo sapiens, UniProt O94806)
| Compound | remaining activity |
| --- | --- |
| CS(=O)(=O)CCNCc1ccc(-c2ccc3ncnc(Nc4ccc(OCc5cccc(F)c5)c(Cl)c4)c3c2)o1 | 88.6% |
| CCN1/C(=C/C(C)=O)Sc2ccc(OC)cc21 | 62.5% |
| Cn1cc(/C=C2\C(=O)Nc3ccc(S(N)(=O)=O)cc32)c2ccccc21 | 76.4% |
| COc1ccc(Cl)cc1NC(=O)Nc1cc(C)nc2ccccc12 | 97.1% |
| CCOc1cc2ncnc(Nc3cccc(Br)c3)c2cc1OCC | 95.4% |
| COc1cc2ncnc(N3CCN(C(=O)Nc4ccc(Oc5ccccc5)cc4)CC3)c2cc1OC | 97.5% |
| CN(C)CCCn1cc(C2=C(c3c[nH]c4ccccc34)C(=O)NC2=O)c2ccccc21 | 54.6% |
| Cn1cnc2cc3c(Nc4cccc(Br)c4)ncnc3cc21 | 93.1% |
| O=C(Nc1ccc(Cl)cc1)c1ccccc1NCc1ccncc1 | 92.1% |
| COc1cc2ncc(-c3ccccc3)nc2cc1OC | 91.1% |
| O=C1NC(=O)/C(=C/c2ccc3nccnc3c2)S1 | 94.7% |
| CC(C)[C@H](CO)Nc1nc(Nc2cccc(Cl)c2)c2ncn(C(C)C)c2n1 | 95.5% |
| Cc1ccc(NC(=O)c2ccc(CN3CCN(C)CC3)cc2)cc1Nc1nccc(-c2cccnc2)n1 | 91.3% |
| CC(C)c1nn(-c2c(Cl)cccc2Cl)c2nc(Cc3ccc(OCCO)cc3)[nH]c(=O)c12 | 92.3% |
| Nc1[nH]nc2nnc(-c3c(-c4ccccc4)nn4ccccc34)cc12 | 58.9% |
| CCC(=O)Nc1ccc2ncnc(Nc3cccc(Br)c3)c2c1 | 85.9% |
| COc1cc2ncnc(Nc3ccc(OCc4ccccc4)cc3)c2cc1OC | 95.3% |
| O=c1cc(N2CCOCC2)oc2c1ccc1ccccc12 | 98.8% |
| Cc1nc(Nc2ncc(C(=O)Nc3c(C)cccc3Cl)s2)cc(N2CCN(CCO)CC2)n1 | 89.9% |

Study 3 — species: human; sample: microsomes or S9; concentration: 2 µM; time: 0.5 h
| SMILES | remaining compound |
| --- | --- |
| O=S(=O)(Nc1cc(F)cc(F)c1)c1c[nH]c2ncccc12 | 78.5% |
| CCOC(=O)c1sc(NC(=O)c2cc(OCC)c(OCC)c(OCC)c2)c(C(N)=O)c1C | 85% |
| CC1(C)CC(=O)C2=C(C1)c1c(ccc3ncccc13)NC2c1ccc(F)cc1 (stereo not drawn) | 16.9% |
| COc1ccc2c(c1)OC(=O)C(C(O)c1ccc3c(c1)OCO3)C2c1ccccc1 (stereo not drawn) | > 100% |

Study 4 — method: protein binding microarray; form: double-stranded DNA, one strand shown; sample: in vitro; concentration: not given; relative to: not given; direction: higher = stronger binding
Target: Histone acetyltransferase KAT6A, winged helix 2, GST fusion (KAT6A, Homo sapiens, UniProt Q92794, residues 85-181)
Notes: 8-mer, flanks averaged, mean of 2 arrays, mostly near background
Target sequence (chain): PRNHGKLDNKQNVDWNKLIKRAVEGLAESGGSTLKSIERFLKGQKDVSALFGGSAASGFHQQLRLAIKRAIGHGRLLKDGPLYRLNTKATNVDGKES
| Strand | E-score |
| --- | --- |
| GATCCAAC | -0.0321 |
| ATGGTGTG | -0.0887 |
| CAGATATC | 0.0726 |
| ATTCACGA | -0.135 |
| GTGGCGGA | 0.0758 |
| GAGTAACC | 0.00966 |
| GGCAGTAA | -0.0541 |
| ATGGCTAA | -0.0775 |

Mixed results
| SMILES | tested on | test | system | setting | endpoint | result |
| --- | --- | --- | --- | --- | --- | --- |
| O=C(Nc1ccccc1)c1cccc(Oc2ccc3nccn3n2)c1 | DDR1b human | DDR1 autophosphorylation, Western blot | HeLa transfected with DDR1b | concentration not given, 24 h, together with: collagen I | inhibition | no inhibition |
| CC(C)n1cnc(-c2ccc(F)cc2)c1-c1ncc(C(=O)Nc2ccc(N3CCN(C)CC3)cc2)[nH]1 |  |  | human, idiopathic pulmonary fibrosis | 60 mg once daily, trial, treatment-emergent | patients with increased neutrophil | 0% |
| COC(=O)C1=C(C)NC(C)=C(C(=O)O[C@@H]2CCCN(Cc3ccccc3)C2)[C@@H]1c1cccc([N+](=O)[O-])c1 (racemic) | A-375 |  |  | 100 µM, 60 h | viability | 6.71% |

Repeated from above (mixed results):
| SMILES | tested on | test | system | setting | endpoint | result |
| --- | --- | --- | --- | --- | --- | --- |
| COC(=O)C1=C(C)NC(C)=C(C(=O)O[C@@H]2CCCN(Cc3ccccc3)C2)[C@@H]1c1cccc([N+](=O)[O-])c1 (racemic) | A-375 |  |  | 100 µM, 60 h | viability | 6.71% |
| CC(C)n1cnc(-c2ccc(F)cc2)c1-c1ncc(C(=O)Nc2ccc(N3CCN(C)CC3)cc2)[nH]1 |  |  | human, idiopathic pulmonary fibrosis | 60 mg once daily, trial, treatment-emergent | patients with increased neutrophil | 0% |
| O=C(Nc1ccccc1)c1cccc(Oc2ccc3nccn3n2)c1 | DDR1b human | DDR1 autophosphorylation, Western blot | HeLa transfected with DDR1b | concentration not given, 24 h, together with: collagen I | inhibition | no inhibition |
